{"data": "Experimental data gathered from unrelated publications", "note": "Compare with care: the assays were run in different laboratories. ± gives the spread as reported."}
{"SMILES": "O=C(CN1CCN(c2cc3c(cc2F)c(=O)c(C(=O)O)cn3C2CC2)CC1)Nc1ccc(Cl)cc1", "assay": "two-compartment model, measured: k21", "test system": "BALB/c mice, female", "conditions": "iv, 3.75 mg/kg", "quantity": "rate constant", "value": "0.0325 min⁻¹"}
{"SMILES": "CCN(Cc1ccccc1)C(=O)CCc1nc(CN2CCN(C(=O)Cc3ccc(OC)c(OC)c3)CC2)no1", "assay": "LC-MS", "test system": "rat, DRG", "conditions": "intravenous, 1 mg/kg, 0.5 h", "quantity": "concentration", "value": "92 ± 1.7 ng/g"}
{"SMILES": "CC[C@H](C)[C@H](NC(=O)[C@H](CC(=O)O)NC(=O)[C@H](CO)NC(=O)[C@H](CCC(N)=O)NC(=O)[C@H](C)NC(=O)[C@H](CC(=O)O)NC(=O)[C@H](CCC(=O)O)NC(=O)[C@H](Cc1c[nH]cn1)NC(=O)[C@H](Cc1ccc(O)cc1)NC(=O)[C@H](C)NC(=O)[C@H](CC(=O)O)NC(=O)[C@H](CCC(=O)O)NC(=O)[C@H](Cc1c[nH]cn1)NC(=O)[C@H](Cc1ccc(O)cc1)NC(=O)[C@H](C)NC(=O)[C@H](CC(=O)O)NC(=O)[C@H](CCC(=O)O)NC(=O)[C@H](Cc1c[nH]cn1)NC(=O)[C@H](Cc1ccc(O)cc1)NC(=O)[C@H](C)NC(=O)[C@H](CC(=O)O)NC(=O)[C@H](CCC(=O)O)NC(=O)[C@H](Cc1c[nH]cn1)NC(=O)[C@H](Cc1ccc(O)cc1)NC(=O)[C@H](C)NC(=O)[C@H](CC(=O)O)NC(=O)[C@H](CCC(=O)O)NC(=O)[C@H](Cc1c[nH]cn1)NC(=O)[C@@H](N)Cc1ccc(O)cc1)C(=O)N[C@H](C(=O)N[C@@H](C)C(=O)N[C@@H](Cc1c[nH]cn1)C(=O)N[C@@H](CC(C)C)C(=O)N[C@@H](CC(C)C)C(=O)O)C(C)C", "test system": "normal mouse", "conditions": "dose not given", "quantity": "BUN", "value": "18.6 ± 2.1 mg/dL"}
{"SMILES": "CC(C)[C@H](NC(=O)CNC(=O)[C@H](CCC(N)=O)NC(=O)[C@H](C)N)C(=O)O", "test system": "human", "conditions": "intravenous infusion, 45 mg/kg/h, 2 h infusion", "quantity": "subjects given concomitant medication", "value": "0%"}
{"SMILES": "[2H]c1c(NS(C)(=O)=O)c([2H])c2c(C(=O)c3ccc(OCCCN(CCCC)CCCC)cc3)c(CCCC)oc2c1[2H]", "test system": "beagle dog, female, persistent atrial fibrillation model", "conditions": "intravenous, 3 mg/kg, 0.5 h", "quantity": "peak QTcF change", "value": "7 ± 5 ms"}
{"SMILES": "COc1ccc(F)cc1S(=O)(=O)Nc1cnc2c(c1)C(=O)NCCO2", "test system": "male cynomolgus monkey, plasma", "conditions": "intravenous, 0.3 mg/kg, single dose", "quantity": "clearance", "value": "5.06 mL/min/kg"}
{"SMILES": "CC[C@H](C)[C@H](NC(=O)[C@H](Cc1ccccc1)NC(=O)[C@H](CC(=O)O)NC(=O)[C@H](CCN)NC(=O)[C@H](Cc1ccccc1)NC(=O)[C@H](Cc1ccccc1)NC(=O)[C@H](CCCCN)NC(=O)[C@H](CCCN)NC(=O)[C@H](CC(C)C)NC(=O)[C@H](CCCNC(=N)N)NC(=O)[C@H](CCSC)NC(=O)[C@H](C)N)C(=O)N[C@@H](CC(C)C)C(=O)N[C@@H](CCC(N)=O)C(=O)N[C@@H](CCCNC(=N)N)C(=O)N[C@@H](CCCCN)C(=O)N[C@@H](CCCCN)C(=O)O", "assay": "circular dichroism", "test system": "20% TFE in PBS", "conditions": "200 µM, pH 7.4, 25 °C", "quantity": "helicity", "value": "17.9%"}
{"SMILES": "CC(=CCC(O)C(C)=Cc1csc(C)n1)CC=CC(C)C(O)C(C)C(=O)C(C)(C)C(O)CC(=O)O (stereo not drawn)", "test system": "human, plasma", "conditions": "intravenous infusion, 8.5 mg/m2 KOS-1584, 3 h infusion, cycle 1", "quantity": "Cmax", "value": "2.27 ± 1.03 ng/mL"}
{"SMILES": "Cc1ccc(/C=C/C(=O)O)cc1-c1cc2c(cc1C)C(C)(C)CCC2(C)C", "test system": "Sprague-Dawley rat, male, plasma", "conditions": "oral, 100 mg/kg, 1 h, sesame oil vehicle", "quantity": "HDL level", "value": "79 ± 13.2 mg/dL"}
{"SMILES": "CC[C@H](C)[C@H](NC(=O)[C@H](Cc1ccccc1)NC(=O)[C@H](CCC(=O)O)NC(=O)[C@H](CCCCN)NC(=O)[C@H](C)NC(=O)[C@H](C)NC(=O)[C@H](CCC(N)=O)NC(=O)CNC(=O)[C@H](CCC(=O)O)NC(=O)[C@H](CC(C)C)NC(=O)[C@H](Cc1ccc(O)cc1)NC(=O)[C@H](CO)NC(=O)[C@H](CO)NC(=O)[C@@H](NC(=O)[C@H](CC(=O)O)NC(=O)[C@H](CO)NC(=O)[C@@H](NC(=O)[C@H](Cc1ccccc1)NC(=O)[C@@H](NC(=O)CNC(=O)[C@H](CCC(=O)O)NC(=O)CNC(=O)[C@@H](N)Cc1c[nH]cn1)[C@@H](C)O)[C@@H](C)O)C(C)C)C(=O)N[C@@H](C)C(=O)N[C@@H](Cc1c[nH]c2ccccc12)C(=O)N[C@@H](CC(C)C)C(=O)N[C@H](C(=O)N[C@@H](CCCCN)C(=O)NCC(=O)N[C@@H](CCCNC(=N)N)C(=O)N[C@@H](CSC1CC(=O)N(CCC(=O)NCCCCC(NC(=O)CCN2C(=O)CC(SC[C@H](NC(=O)[C@H](CCCNC(=N)N)NC(=O)CNC(=O)[C@H](CCCCN)NC(=O)[C@@H](NC(=O)[C@H](CC(C)C)NC(=O)[C@H](Cc3c[nH]c4ccccc34)NC(=O)[C@H](C)NC(=O)[C@@H](NC(=O)[C@H](Cc3ccccc3)NC(=O)[C@H](CCC(=O)O)NC(=O)[C@H](CCCCN)NC(=O)[C@H](C)NC(=O)[C@H](C)NC(=O)[C@H](CCC(N)=O)NC(=O)CNC(=O)[C@H](CCC(=O)O)NC(=O)[C@H](CC(C)C)NC(=O)[C@H](Cc3ccc(O)cc3)NC(=O)[C@H](CO)NC(=O)[C@H](CO)NC(=O)[C@@H](NC(=O)[C@H](CC(=O)O)NC(=O)[C@H](CO)NC(=O)[C@@H](NC(=O)[C@H](Cc3ccccc3)NC(=O)[C@@H](NC(=O)CNC(=O)[C@H](CCC(=O)O)NC(=O)CNC(=O)[C@@H](N)Cc3c[nH]cn3)[C@@H](C)O)[C@@H](C)O)C(C)C)[C@@H](C)CC)C(C)C)C(N)=O)C2=O)C(=O)NCCCCCCN)C1=O)C(N)=O)C(C)C (stereo partly drawn)", "assay": "measured: ALT, AST, BUN, creatinine", "test system": "db/db mouse, serum", "conditions": "subcutaneous, 500 nmol/kg twice daily, 7 days", "how to read": "relative to: control", "quantity": "liver and kidney toxicity markers", "value": "no effect"}
{"SMILES": "CC(C)COC1O[C@@H]2O[C@@]3(C)CC[C@H]4[C@H](C)CCC([C@H]1C)[C@@]24OO3 (stereo partly drawn)", "test system": "Tg(fli1:EGFP) zebrafish embryos", "conditions": "25 µg/mL, up to 48 hpf", "quantity": "dead embryos", "value": "0 count"}
{"SMILES": "CSCC[C@H](NC(=O)CNC(=O)[C@H](CC(=O)O)NC(=O)[C@@H](NC(=O)[C@@H](NC(=O)[C@@H](NC(=O)CNC(=O)[C@H](CCC(=O)O)NC(=O)[C@H](CCSC)NC(=O)[C@H](CC(=O)O)NC(=O)[C@H](C)NC(=O)[C@H](C)NC(=O)[C@@H](NC(=O)[C@H](CO)NC(=O)[C@@H](N)CC(C)C)[C@@H](C)O)C(C)C)C(C)C)[C@@H](C)O)C(=O)N[C@@H](C)C(=O)N[C@@H](CO)C(=O)NCC(=O)N[C@@H](CC(C)C)C(=O)N[C@@H](CC(=O)O)C(=O)N[C@@H](CCCCN)C(=O)N[C@@H](CC(=O)O)C(=O)N[C@@H](Cc1ccc(O)cc1)C(=O)N[C@@H](CC(C)C)C(=O)N[C@@H](CCCCN)C(=O)N1CCC[C@H]1C(=O)N[C@@H](CC(=O)O)C(=O)N[C@@H](CC(=O)O)C(=O)O", "test system": "male CD-1 mice, serum", "conditions": "intravenous, 480 mg/kg", "quantity": "t1/2 gamma", "value": "34.1 h"}
{"SMILES": "CC[C@@H](C)[C@@H](NC(=O)[C@@H](C)NC(=O)[C@@H](CCCCN)NC(=O)[C@@H](CC(C)C)NC(=O)[C@@H](C)NC(=O)[C@H](NC(=O)[C@@H](Cc1c[nH]cn1)NC(=O)[C@@H](CC(C)C)NC(=O)[C@H](NC(=O)[C@H](NC(=O)[C@@H](CCCCN)NC(=O)[C@@H](CCCCN)NC(=O)[C@@H](C)NC(=O)[C@@H](CO)NC(=O)[C@@H](CCCCN)NC(=O)[C@@H](Cc1ccccc1)NC(=O)[C@H](NC(=O)[C@@H](CCCCN)NC(=O)[C@@H](CC(C)C)NC(=O)[C@@H](Cc1ccccc1)NC(=O)[C@@H](CO)NC(=O)[C@@H](CCCCN)NC(=O)[C@@H](Cc1c[nH]c2ccccc12)NC(=O)[C@@H](CCCCN)NC(C)=O)[C@H](C)O)[C@H](C)O)C(C)C)[C@H](C)O)C(=O)N[C@H](CO)C(=O)N[C@H](CO)C(N)=O", "assay": "RP-HPLC temperature profiling", "conditions": "pH 2, 5-80 °C, unit not given", "how to read": "relative to: control peptide", "quantity": "self-association parameter", "value": 2.78}
{"SMILES": "CN[C@](C)(C[18F])C(=O)O", "test system": "SCID mouse A549 xenograft, spleen", "conditions": "15 min, post injection", "quantity": "tissue uptake", "value": "10 ± 1.9 %ID/g"}
{"SMILES": "COc1cc(NC(=O)C(=O)c2c(C)n(Cc3ccc(Cl)cc3)c3ccc(C)cc23)ccn1", "test system": "cynomolgus monkey, male, plasma", "conditions": "intravenous, 1 mg/kg", "quantity": "C0", "value": "1650 ng/mL"}
{"SMILES": "c1ccc(C2(CCNC3CCC4(SCCS4)c4ccccc43)CCOC3(CCCC3)C2)nc1 (stereo not drawn)", "test system": "rat", "conditions": "intravenous, 0.5 mg/kg", "quantity": "AUC(0-24 h)", "value": "453 ng·h/mL"}
{"SMILES": "CCCC[C@H]1C(=O)N(C)[C@@H](CCCC)C(=O)N[C@@H](CCCNC(=O)CN2CCN(CC(=O)O)CCN(CC(=O)O)CCN(CC(=O)O)CC2)C(=O)N[C@H](C(=O)NCC(N)=O)CSCC(=O)N[C@@H](Cc2ccc(O)cc2)C(=O)N(C)[C@@H](C)C(=O)N[C@@H](CC(N)=O)C(=O)N2CCC[C@H]2C(=O)N[C@@H](Cc2c[nH]cn2)C(=O)N[C@@H](CC(C)C)C(=O)N(C)CC(=O)N[C@@H](Cc2c[nH]c3ccccc23)C(=O)N[C@@H](CO)C(=O)N[C@@H](Cc2c[nH]c3ccccc23)C(=O)N1C [gallium-68 labelled]", "assay": "static PET", "test system": "NOD/SCID mice, CHO xenograft, CHO tumour, PD-L1-negative", "conditions": "intravenous, 1 h post injection", "quantity": "tumour to muscle ratio", "value": "3.49 ± 0.51"}
{"SMILES": "CN(C)C(CNC(=O)Nc1cc(C(F)(F)F)ccc1N1CCOCC1)c1ccncc1 (stereo not drawn)", "test system": "mouse, serum", "conditions": "intraperitoneal, 120 mg/kg single dose", "quantity": "serum AST", "value": "628 U/L"}
{"SMILES": "O=c1cc(-c2ccccc2)oc2c(Br)c(O)c(O)c(O)c12", "test system": "C57BL/6 mouse, plasma", "conditions": "oral, 150 mg/kg, single dose", "quantity": "MRT(0-inf)", "value": "9.3 h"}
{"SMILES": "CC[C@H](C)C(=O)N1CCC(NC(=O)Nc2ccc(OC(F)(F)F)c(F)c2)CC1", "test system": "healthy volunteers", "conditions": "oral, 24 mg single dose", "quantity": "subjects with feeling hot TEAE", "value": "0%"}
{"SMILES": "N#CC1(c2ccc3c(N)ncnn23)OC(COP(=O)(O)OP(=O)(O)OP(=O)(O)O)C(O)C1O (stereo not drawn)", "assay": "LC-MS/MS", "test system": "CD-1 mouse, liver", "conditions": "oral, 100 mg/kg of remdesivir", "quantity": "AUC(0-t)", "value": "28200 nmol·h/kg"}
